Published values from different studies.
Each numbered part is a random draw from the data of one study; scales do not carry over between parts. Several values in a cell are separate wells, animals, samples, runs or records.
Sequence of UniProt Q9Y2I7 (whole entry, looked up): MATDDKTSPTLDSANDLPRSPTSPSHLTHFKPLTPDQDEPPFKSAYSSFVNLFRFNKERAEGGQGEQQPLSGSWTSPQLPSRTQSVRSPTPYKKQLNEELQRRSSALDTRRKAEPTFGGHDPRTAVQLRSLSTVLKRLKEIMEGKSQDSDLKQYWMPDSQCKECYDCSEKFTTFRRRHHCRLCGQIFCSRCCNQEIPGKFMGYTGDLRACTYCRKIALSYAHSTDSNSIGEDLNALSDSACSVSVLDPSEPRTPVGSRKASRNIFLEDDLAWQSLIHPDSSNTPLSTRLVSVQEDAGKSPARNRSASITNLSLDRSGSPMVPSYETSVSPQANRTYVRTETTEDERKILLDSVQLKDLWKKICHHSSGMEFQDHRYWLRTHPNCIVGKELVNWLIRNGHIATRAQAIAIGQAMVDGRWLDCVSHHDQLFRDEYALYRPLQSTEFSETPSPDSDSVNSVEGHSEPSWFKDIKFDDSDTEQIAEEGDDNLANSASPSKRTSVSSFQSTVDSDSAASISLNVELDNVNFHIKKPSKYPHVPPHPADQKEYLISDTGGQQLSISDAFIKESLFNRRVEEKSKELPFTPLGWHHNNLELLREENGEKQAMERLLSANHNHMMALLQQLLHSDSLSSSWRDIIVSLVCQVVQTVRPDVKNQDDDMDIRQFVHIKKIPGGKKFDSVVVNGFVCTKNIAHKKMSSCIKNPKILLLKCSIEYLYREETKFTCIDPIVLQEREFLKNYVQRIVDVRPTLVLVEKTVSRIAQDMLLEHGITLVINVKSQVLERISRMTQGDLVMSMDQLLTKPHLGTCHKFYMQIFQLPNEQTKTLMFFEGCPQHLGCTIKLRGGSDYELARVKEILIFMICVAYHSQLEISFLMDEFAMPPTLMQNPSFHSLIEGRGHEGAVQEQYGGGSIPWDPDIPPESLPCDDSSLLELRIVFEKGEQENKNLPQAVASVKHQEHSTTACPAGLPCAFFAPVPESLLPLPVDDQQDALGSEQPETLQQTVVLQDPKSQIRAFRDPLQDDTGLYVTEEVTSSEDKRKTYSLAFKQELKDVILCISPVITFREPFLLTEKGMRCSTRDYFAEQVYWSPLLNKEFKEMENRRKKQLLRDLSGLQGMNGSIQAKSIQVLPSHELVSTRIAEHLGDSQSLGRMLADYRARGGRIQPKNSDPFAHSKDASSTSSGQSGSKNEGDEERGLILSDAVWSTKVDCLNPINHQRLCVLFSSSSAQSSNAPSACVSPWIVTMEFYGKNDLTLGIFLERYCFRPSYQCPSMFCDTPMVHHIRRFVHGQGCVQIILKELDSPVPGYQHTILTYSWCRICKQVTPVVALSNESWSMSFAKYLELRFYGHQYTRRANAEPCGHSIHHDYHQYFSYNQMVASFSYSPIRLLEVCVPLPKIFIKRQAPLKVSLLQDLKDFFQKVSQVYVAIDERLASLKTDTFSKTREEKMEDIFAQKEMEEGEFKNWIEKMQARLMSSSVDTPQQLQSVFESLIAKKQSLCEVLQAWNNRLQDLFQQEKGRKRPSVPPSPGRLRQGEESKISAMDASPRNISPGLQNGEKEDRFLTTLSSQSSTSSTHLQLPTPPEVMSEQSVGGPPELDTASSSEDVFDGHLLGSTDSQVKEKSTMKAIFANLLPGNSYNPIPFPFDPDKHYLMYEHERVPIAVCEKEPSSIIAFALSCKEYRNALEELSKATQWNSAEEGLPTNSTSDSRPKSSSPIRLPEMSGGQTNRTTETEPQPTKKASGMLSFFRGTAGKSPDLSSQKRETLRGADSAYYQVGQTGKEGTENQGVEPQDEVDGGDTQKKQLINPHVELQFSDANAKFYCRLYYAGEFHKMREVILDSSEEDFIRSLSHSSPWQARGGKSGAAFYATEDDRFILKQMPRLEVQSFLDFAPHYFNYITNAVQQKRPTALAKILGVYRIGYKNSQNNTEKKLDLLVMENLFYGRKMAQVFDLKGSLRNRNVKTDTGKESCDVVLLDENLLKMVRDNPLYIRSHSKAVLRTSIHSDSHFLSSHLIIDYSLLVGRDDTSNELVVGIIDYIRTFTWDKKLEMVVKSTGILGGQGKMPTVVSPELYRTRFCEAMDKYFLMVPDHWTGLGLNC
Sequence of UniProt P37023 (whole entry, looked up): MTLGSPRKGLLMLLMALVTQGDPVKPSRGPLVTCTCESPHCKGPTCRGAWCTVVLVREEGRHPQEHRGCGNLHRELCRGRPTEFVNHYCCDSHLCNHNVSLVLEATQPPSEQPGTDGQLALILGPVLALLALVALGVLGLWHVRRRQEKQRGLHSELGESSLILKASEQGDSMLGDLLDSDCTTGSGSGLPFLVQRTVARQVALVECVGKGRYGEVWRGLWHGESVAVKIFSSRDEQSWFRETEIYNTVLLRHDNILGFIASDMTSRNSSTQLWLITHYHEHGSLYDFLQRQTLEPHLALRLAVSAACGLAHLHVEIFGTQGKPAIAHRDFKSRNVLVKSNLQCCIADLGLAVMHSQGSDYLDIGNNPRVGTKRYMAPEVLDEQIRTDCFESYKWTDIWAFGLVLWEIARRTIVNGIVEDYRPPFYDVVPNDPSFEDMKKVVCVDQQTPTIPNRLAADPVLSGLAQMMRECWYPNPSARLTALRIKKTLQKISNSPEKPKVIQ

Series 1
SMILES: Cc1ncsc1-c1ccc(C(CO)NC(=O)C2CC(O)CN2C(=O)C(C(C)C)n2cc(-c3ccc(COc4c(-c5c(C)c(F)cc6[nH]ncc56)c(C5CC5)cc5c(N6CC7CC6CN7)nc(OC6CCOCC6)nc45)cc3)nn2)cc1 (stereo not shown)
The tumour volume was 395 mm3 and 258 mm3 and 490 mm3 and 354 mm3 and 438 mm3 (mouse, A-375 xenograft; sc, 30 mg/kg once daily, day 8).
For mouse, PK-59 xenograft; 3 mg/kg, day 14: tumour volume read 623 mm3 and 577 mm3 and 425 mm3 and 482 mm3 and 627 mm3.
For mouse, A-375 xenograft; sc, 30 mg/kg once daily, day 1: tumour volume read 177 mm3 and 126 mm3 and 152 mm3 and 137 mm3 and 162 mm3.
For mouse, PK-59 xenograft; 10 mg/kg, day 14: tumour volume read 338 mm3 and 299 mm3 and 295 mm3 and 218 mm3 and 253 mm3.
For mouse, A-375 xenograft; sc, 30 mg/kg once daily, day 13: tumour volume read 501 mm3 and 857 mm3 and 588 mm3 and 1060 mm3 and 619 mm3.
It gave 581 mm3 and 561 mm3 and 669 mm3 and 703 mm3 and 551 mm3 for tumour volume (mouse, HT-29 xenograft; sc, 30 mg/kg once daily, day 10).
It gave 142 mm3 and 124 mm3 and 131 mm3 and 125 mm3 and 107 mm3 for tumour volume (mouse, PK-59 xenograft; subcutaneous, 30 mg/kg once daily, day 6).
mouse, PK-59 xenograft; 1 mg/kg, day 10 — tumour volume: 694 mm3 and 704 mm3 and 813 mm3 and 581 mm3 and 668 mm3.
KP-4 xenograft, mouse; 30 mg/kg twice weekly, day 4 — tumour volume: 188 mm3 and 146 mm3 and 141 mm3 and 189 mm3 and 172 mm3.
For mouse, PK-59 xenograft; 3 mg/kg, day 10: tumour volume read 473 mm3 and 565 mm3 and 426 mm3 and 542 mm3 and 436 mm3.

Series 2
Structure (SMILES): CCN1/C(=C/C=C2\CCCC(/C=C/C3=[N+](CC)c4ccccc4C3(C)C)=C2NCCCCCCCCN2CCC(Nc3nc4ccccc4n3Cc3ccc(F)cc3)CC2)C(C)(C)c2ccccc21
Cell line: U-87 MG
Concentration: concentration not given
Relative to: DMSO
It gave 0.908 for “log2 fold change” (measured: TMEM167B mRNA).
measured: APBA3 mRNA — “log2 fold change”: 0.847.
It gave 1.01 for “log2 fold change” (measured: CBX4 mRNA).
measured: PADI1 mRNA — “log2 fold change”: -6.49.
measured: OASL mRNA — “log2 fold change”: -1.88.
The “log2 fold change” was -1.58 (measured: C4orf46 mRNA).
The “log2 fold change” was -1.22 (measured: LIMA1 mRNA).
It gave -0.827 for “log2 fold change” (measured: PGAM4 mRNA).
measured: GOLGA8G mRNA — “log2 fold change”: -2.68.
measured: PARD3B mRNA — “log2 fold change”: 1.27.
It gave -1.74 for “log2 fold change” (measured: SPIN4 mRNA).
It gave 1.56 for “log2 fold change” (measured: GPR137B mRNA).

Series 3
Compound: CC[C@@]1(c2cccc(-c3c(F)cncc3OC)c2)C2=C(Nc3n[nH]cc31)[C@H](F)C(C)(C)CC2=O (single isomer, unassigned)
Concentration: 1 µM
For Receptor-interacting serine/threonine-protein kinase 1 (RIPK1, Homo sapiens, UniProt Q13546); binding, competition with immobilised ligand: remaining binding read 100%.
It gave 89% for remaining binding (Serine/threonine-protein kinase Nek6 (NEK6, Homo sapiens, UniProt Q9HC98); kinase binding, KINOMEscan; relative to: DMSO control).
Activin receptor type-1-like (ACVRL1, Homo sapiens, UniProt P37023); binding, competition with immobilised ligand — remaining binding: 94%.
For Tyrosine-protein kinase Lyn (LYN, Homo sapiens, UniProt P07948); binding, competition with immobilised ligand: remaining binding read 100%.
It gave 90% for remaining binding (Cyclin-dependent kinase-like 2 (CDKL2, Homo sapiens, UniProt Q92772); kinase binding, KINOMEscan; relative to: DMSO control).
The remaining binding was 86% (Serine/threonine-protein kinase MARK1 (MARK1, Homo sapiens, UniProt Q9P0L2); binding, competition with immobilised ligand).
Vascular endothelial growth factor receptor 2 (KDR, Homo sapiens, UniProt P35968); kinase binding, KINOMEscan; relative to: DMSO control — remaining binding: 82%.
The remaining binding was 98% (Serine/threonine-protein kinase pim-2 (PIM2, Homo sapiens, UniProt Q9P1W9); binding, competition with immobilised ligand).
Cyclin-dependent kinase 2 (CDK2, Homo sapiens, UniProt P24941); binding, competition with immobilised ligand — remaining binding: 2.2%.
For Receptor-type tyrosine-protein kinase FLT3, autoinhibited (FLT3, Homo sapiens, UniProt P36888); kinase binding, KINOMEscan; relative to: DMSO control: remaining binding read 78%.
For Dual specificity mitogen-activated protein kinase kinase 6 (MAP2K6, Homo sapiens, UniProt P52564); kinase binding, KINOMEscan; relative to: DMSO control: remaining binding read 95%.
The remaining binding was 100% (Tyrosine-protein kinase Fer (FER, Homo sapiens, UniProt P16591); kinase binding, KINOMEscan; relative to: DMSO control).
It gave 73% for remaining binding (Tyrosine-protein kinase ABL1, phosphorylated (ABL1, Homo sapiens, UniProt P00519, M351T); binding, competition with immobilised ligand).

Series 4
Compound: COc1cc(-c2nc3ccc(C(=O)NCCCN(C)C)cc3n2C2CCC2)cc(OC)c1OC
Observed: binding
Method: competition with immobilised ligand
Concentration: 1 µM
For Serine/threonine-protein kinase DCLK2 (DCLK2, Homo sapiens, UniProt Q8N568): remaining binding read 83%.
For Phosphatidylinositol 3-kinase catalytic subunit type 3 (PIK3C3, Homo sapiens, UniProt Q8NEB9): remaining binding read 74%.
It gave 100% for remaining binding (Phosphorylase b kinase gamma catalytic chain, skeletal muscle/heart isoform (PHKG1, Homo sapiens, UniProt Q16816)).
For Tyrosine-protein kinase ABL1, phosphorylated (ABL1, Homo sapiens, UniProt P00519): remaining binding read 65%.
For Beta-adrenergic receptor kinase 1 (GRK2, Homo sapiens, UniProt P25098): remaining binding read 77%.
The remaining binding was 98% (Dual specificity testis-specific protein kinase 1 (TESK1, Homo sapiens, UniProt Q15569)).
The remaining binding was 99% (Phosphatidylinositol 4,5-bisphosphate 3-kinase catalytic subunit alpha isoform (PIK3CA, Homo sapiens, UniProt P42336, E545K)).
The remaining binding was 67% (Dual specificity tyrosine-phosphorylation-regulated kinase 1A (DYRK1A, Homo sapiens, UniProt Q13627)).
It gave 86% for remaining binding (Serine/threonine-protein kinase ULK1 (ULK1, Homo sapiens, UniProt O75385)).
For STE20-like serine/threonine-protein kinase (SLK, Homo sapiens, UniProt Q9H2G2): remaining binding read 40%.
For Serine/threonine-protein kinase LATS2 (LATS2, Homo sapiens, UniProt Q9NRM7): remaining binding read 50%.

Series 5
SMILES: COCC1CC2C(CCC3C(O)CCC32)c2ccc(O)cc21 (stereo not shown)
The “mRNA level ratio” was 1.01 (SK-OV-3; DNA microarray, measured: MCM7; 25 µM; relative to: untreated cells).
It gave 1.7 for “mRNA level ratio” (PANC-1; microarray, measured: RFC3; 25 µM; relative to: untreated).
The “mRNA level ratio” was 1.11 (A549; DNA microarray, measured: GINS1; 25 µM; relative to: untreated cells).
It gave 1.15 for “mRNA level ratio” (PANC-1; microarray, measured: MCM6; 100 µM; relative to: untreated).
The “mRNA level ratio” was 0.978 (SK-OV-3; microarray, measured: PIF1; 100 µM; relative to: untreated).
For PANC-1; microarray, measured: AURKA; 100 µM; relative to: untreated: “mRNA level ratio” read 1.44.
It gave 0.819 and 0.815 and 0.804 and 0.822 for “mRNA level ratio” (A549; DNA microarray, measured: GAPDH; 25 µM; relative to: untreated cells).
The “mRNA level ratio” was 1.13 (PANC-1; DNA microarray, measured: MCM10; 100 µM; relative to: untreated cells).
The “mRNA level ratio” was 0.969 and 1.02 and 1 and 0.975 (SK-OV-3; DNA microarray, measured: KIF20A; 100 µM; relative to: untreated cells).
For PANC-1; DNA microarray, measured: GINS1; 25 µM; relative to: untreated cells: “mRNA level ratio” read 1.39.
For SK-OV-3; microarray, measured: RFC3; 25 µM; relative to: untreated: “mRNA level ratio” read 1.34.
For A549; DNA microarray, measured: MCM7; 100 µM; relative to: untreated cells: “mRNA level ratio” read 0.733.
SK-OV-3; microarray, measured: GZMK; 100 µM; relative to: untreated — “mRNA level ratio”: 1.
For SK-OV-3; microarray, measured: MCM6; 100 µM; relative to: untreated: “mRNA level ratio” read 0.933.

Series 6
SMILES: C[C@@H]1CN(c2ccc(-c3cc(C(=O)NCCOCCOCCOCCOCCOCCOCCNC(=O)/C=C/c4[nH]cc(C(=O)N[C@@H](CC(N)=O)c5ccc(F)c(Cl)c5)c4-c4ccc(Cl)cc4F)ccc3F)cc2NC(=O)c2ccc(F)cc2C(F)(F)F)C[C@H](C)N1C
Observed: thermal unfolding
Method: differential scanning fluorimetry
Concentration: 5.5 µM
Reading: higher = more unfolded
WDR5: WD repeat-containing protein 5 (WDR5, Homo sapiens, UniProt P61964)
DCAF1: DDB1- and CUL4-associated factor 1 (DCAF1, Homo sapiens, UniProt Q9Y4B6)
Sequence of UniProt Q9Y4B6 (whole entry, looked up): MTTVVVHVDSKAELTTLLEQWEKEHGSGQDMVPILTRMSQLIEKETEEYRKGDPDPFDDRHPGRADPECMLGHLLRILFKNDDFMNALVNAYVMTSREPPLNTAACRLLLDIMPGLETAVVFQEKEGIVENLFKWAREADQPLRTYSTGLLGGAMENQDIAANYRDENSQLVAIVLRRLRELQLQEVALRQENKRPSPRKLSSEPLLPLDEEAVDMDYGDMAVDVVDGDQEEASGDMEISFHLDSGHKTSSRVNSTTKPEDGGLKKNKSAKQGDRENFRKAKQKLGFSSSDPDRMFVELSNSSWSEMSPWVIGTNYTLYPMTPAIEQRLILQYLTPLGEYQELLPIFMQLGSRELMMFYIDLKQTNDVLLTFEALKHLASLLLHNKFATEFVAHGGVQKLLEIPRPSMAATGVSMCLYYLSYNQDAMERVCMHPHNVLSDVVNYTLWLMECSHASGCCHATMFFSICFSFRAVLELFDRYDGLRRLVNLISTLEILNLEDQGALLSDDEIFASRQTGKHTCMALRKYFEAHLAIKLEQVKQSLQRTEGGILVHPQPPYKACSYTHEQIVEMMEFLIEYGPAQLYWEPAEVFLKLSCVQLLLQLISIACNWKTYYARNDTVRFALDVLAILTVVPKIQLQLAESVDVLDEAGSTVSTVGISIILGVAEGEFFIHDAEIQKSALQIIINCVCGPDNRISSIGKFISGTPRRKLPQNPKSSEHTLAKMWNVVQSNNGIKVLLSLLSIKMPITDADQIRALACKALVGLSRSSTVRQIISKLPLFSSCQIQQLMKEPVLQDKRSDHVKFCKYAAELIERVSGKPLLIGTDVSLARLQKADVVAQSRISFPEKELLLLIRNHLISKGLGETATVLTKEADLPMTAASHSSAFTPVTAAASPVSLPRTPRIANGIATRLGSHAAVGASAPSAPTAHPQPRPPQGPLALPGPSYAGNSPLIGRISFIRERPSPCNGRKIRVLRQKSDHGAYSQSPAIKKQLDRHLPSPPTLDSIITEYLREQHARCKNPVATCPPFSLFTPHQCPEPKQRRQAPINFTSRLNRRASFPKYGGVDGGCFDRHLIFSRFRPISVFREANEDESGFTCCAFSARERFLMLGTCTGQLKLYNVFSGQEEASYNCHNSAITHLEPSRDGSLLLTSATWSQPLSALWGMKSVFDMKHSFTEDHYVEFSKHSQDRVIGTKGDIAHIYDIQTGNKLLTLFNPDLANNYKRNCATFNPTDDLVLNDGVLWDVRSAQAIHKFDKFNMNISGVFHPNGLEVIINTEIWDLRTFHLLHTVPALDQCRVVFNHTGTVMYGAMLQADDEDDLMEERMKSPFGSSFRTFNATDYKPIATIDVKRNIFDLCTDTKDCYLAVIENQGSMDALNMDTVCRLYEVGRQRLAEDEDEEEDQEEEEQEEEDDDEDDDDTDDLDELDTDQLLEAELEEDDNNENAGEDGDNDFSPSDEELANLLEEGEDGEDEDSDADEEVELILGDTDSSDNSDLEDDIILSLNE
For WDR5; 65.61 °C: “SYPRO Orange fluorescence” read 16900 a.u.
The “SYPRO Orange fluorescence” was 53100 a.u. (DCAF1; 65.61 °C).
WDR5; 47 °C — “SYPRO Orange fluorescence”: 15100 a.u.
For WDR5; 56.01 °C: “SYPRO Orange fluorescence” read 16300 a.u.
WDR5; 33 °C — “SYPRO Orange fluorescence”: 13800 a.u.
WDR5; 75.21 °C — “SYPRO Orange fluorescence”: 49500 a.u.
It gave 14500 a.u. for “SYPRO Orange fluorescence” (WDR5; 43.6 °C).
WDR5; 47.8 °C — “SYPRO Orange fluorescence”: 15400 a.u.
It gave 16500 a.u. for “SYPRO Orange fluorescence” (WDR5; 65.21 °C).
It gave 49800 a.u. for “SYPRO Orange fluorescence” (DCAF1; 60.81 °C).
It gave 15600 a.u. for “SYPRO Orange fluorescence” (WDR5; 59.01 °C).

Series 7
SMILES: COc1cc(C(=O)OCCCN2CCCN(CCCOC(=O)c3cc(OC)c(OC)c(OCc4ccc([N+](=O)[O-])cc4)c3)CC2)cc(OC)c1OC
Target: Equilibrative nucleoside transporter 1 (SLC29A1, Homo sapiens, UniProt Q99808, del243-274/L168F/N288K/P175A)
Sequence of UniProt Q99808 (whole entry, unmodified, looked up): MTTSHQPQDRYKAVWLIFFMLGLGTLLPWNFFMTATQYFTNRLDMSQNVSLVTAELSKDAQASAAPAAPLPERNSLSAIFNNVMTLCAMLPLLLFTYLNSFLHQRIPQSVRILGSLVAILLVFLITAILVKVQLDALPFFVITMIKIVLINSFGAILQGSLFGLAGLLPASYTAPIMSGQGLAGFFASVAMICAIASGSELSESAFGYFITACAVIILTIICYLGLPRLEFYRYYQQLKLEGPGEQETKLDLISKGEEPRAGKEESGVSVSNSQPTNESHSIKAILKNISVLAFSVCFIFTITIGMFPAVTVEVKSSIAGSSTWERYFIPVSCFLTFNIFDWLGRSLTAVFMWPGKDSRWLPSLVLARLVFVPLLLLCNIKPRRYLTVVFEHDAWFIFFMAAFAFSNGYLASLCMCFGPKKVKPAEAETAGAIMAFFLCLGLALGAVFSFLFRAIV
Mode: competitor
Method: scintillation proximity
The [3H]NBMPR binding was 93% and 60.9% and 57.6% and 70.2% and 71.2% and 58.5% (38.98 nM).
The [3H]NBMPR binding was -1.26% and 1.07% and -0.477% and 0.193% and -0.311% and 0.789% (21850 nM).
For 1.869 nM: [3H]NBMPR binding read 107% and 89.8% and 95.5% and 94.6% and 97.5% and 96.2%.
The [3H]NBMPR binding was 87% and 72.7% and 87.2% and 70.2% and 74.1% and 94.7% (19.22 nM).

Series 8
SMILES: Cc1ccc(O)c(C)c1-c1cnc2[nH]c(-c3cnc(N4CCC(CN5CCN(c6cc7c(cc6F)c(N6CCC(=O)NC6=O)nn7C)CC5)CC4)nc3)cc2c1C#N
Target: Membrane-associated tyrosine- and threonine-specific cdc2-inhibitory kinase (PKMYT1, Homo sapiens, UniProt Q99640)
Sequence of UniProt Q99640 (whole entry, looked up): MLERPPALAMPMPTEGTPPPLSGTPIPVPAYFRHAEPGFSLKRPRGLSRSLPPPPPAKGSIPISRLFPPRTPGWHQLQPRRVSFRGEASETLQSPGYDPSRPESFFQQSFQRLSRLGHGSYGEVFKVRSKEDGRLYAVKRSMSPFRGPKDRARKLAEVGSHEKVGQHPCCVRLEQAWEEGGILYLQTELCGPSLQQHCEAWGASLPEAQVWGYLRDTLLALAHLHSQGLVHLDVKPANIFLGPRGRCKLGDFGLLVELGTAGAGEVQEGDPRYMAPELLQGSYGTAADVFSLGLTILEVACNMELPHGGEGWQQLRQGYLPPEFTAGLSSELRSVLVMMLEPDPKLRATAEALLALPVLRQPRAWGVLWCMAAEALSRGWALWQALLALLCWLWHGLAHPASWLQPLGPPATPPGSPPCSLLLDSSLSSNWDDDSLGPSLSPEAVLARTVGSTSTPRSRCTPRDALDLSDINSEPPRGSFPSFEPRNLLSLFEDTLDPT
The inhibition was 79.7% (cell-free assay, inhibitor, TR-FRET; 12.35 nM).
0.3333 µM — inhibition: 99.7%.
It gave 99.2% for inhibition (cell-free assay, inhibitor, TR-FRET; 0.3333 µM).
The inhibition was 45.3% (cell-free assay, inhibitor, TR-FRET; 4.12 nM).
0.000152 µM — inhibition: -5.89%.
cell-free assay, inhibitor, TR-FRET; 37.04 nM — inhibition: 95.3%.
The inhibition was 98.6% (cell-free assay, inhibitor, TR-FRET; 0.1111 µM).
The inhibition was 101% (cell-free assay, inhibitor, TR-FRET; 1 µM).
The inhibition was -3.96% (cell-free assay, inhibitor, TR-FRET; 51 pM).
The inhibition was -2.87% (cell-free assay, inhibitor, TR-FRET; 152 pM).
For 0.03704 µM: inhibition read 94.8%.
For 5.1e-05 µM: inhibition read 3.21%.
1 µM — inhibition: 100%.
0.01235 µM — inhibition: 81.5%.
0.1111 µM — inhibition: 98.7%.
The inhibition was 41.1% (0.00412 µM).

Other studies, line by line
For `CC(C)=CCN1C(=O)C(O)(C(=O)O)Oc2cc(F)ccc21` (stereo not shown), the root length was 0.902 cm (Arabidopsis thaliana; Col-0; 50 µg/mL, seed germination).
The remaining binding of `Ic1ccc(Nc2nc(NCCc3c[nH]c4ccccc34)nc(N3CCOCC3)n2)cc1` is reported as 0.059 and 0.0548 and 0.0482 and 0.0334 (1-phosphatidylinositol 3-phosphate 5-kinase (PIKFYVE, Homo sapiens, UniProt Q9Y2I7); KINOMEscan; 123 nM, unit not given; relative to: DMSO).
With `O=C(O)C1(O)Oc2cc(F)ccc2N(Cc2ccccc2)C1=O` (stereo not shown) the fresh weight was 214 mg (Arabidopsis thaliana; shoots; foliar spray, 200 µg/mL, 20 days).
`Cc1nc(C)c(C=[N+]([O-])C(C)(C)C)nc1C` has a pSer9-GSK3β/total GSK3β of 133 and 113 and 196 and 102 (Western blot; MPTP mouse model; 10 mg/kg).
`CCCN1C(=O)C(O)(C(=O)O)Oc2cc(F)ccc21` (stereo not shown) gave a fresh weight of 410 mg (Arabidopsis thaliana; shoots; foliar spray, 200 µg/mL, 20 days).
For `O=C(O)C1Oc2cc(F)ccc2N(Cc2ccccc2)C1=O` (stereo not shown), the root length was 0.859 cm (Arabidopsis thaliana; Col-0; 50 µg/mL, seed germination).

Repeated from above (series 8):
cell-free assay, inhibitor, TR-FRET; 37.04 nM — inhibition: 95.3%.
The inhibition was 98.6% (cell-free assay, inhibitor, TR-FRET; 0.1111 µM).
The inhibition was 101% (cell-free assay, inhibitor, TR-FRET; 1 µM).
The inhibition was -3.96% (cell-free assay, inhibitor, TR-FRET; 51 pM).
The inhibition was -2.87% (cell-free assay, inhibitor, TR-FRET; 152 pM).
For 0.03704 µM: inhibition read 94.8%.
